# Results pooled from the literature.
# Compare with care: the assays were run in different laboratories. Numbers after ± are the reported error.
Structure (SMILES),test system,setting,quantity,result
C=Cc1cc(O)cc2nc(-c3ccc(O)c([76Br])c3)oc12,"female C57BL/6 mouse, blood","3 h, high dose",tissue uptake,0.21 ± 0.06 %ID/g
CCCCCCCC(=O)NCCCC[C@H](NC(=O)[C@H](Cc1ccccc1)NC(=O)[C@@H](CCCNC(=N)N)NC(=O)[C@@H](N)Cc1ccc(O)cc1)C(N)=O,"CD-1 mouse, male, spleen","intravenous, 3 mg/kg, 180 min",tissue concentration,1310 ± 385 ng/g
CN[C@](C)(C[18F])C(=O)O,"SCID mouse MDA-MB-468 xenograft, spleen","120 min, post injection",tissue uptake,4.7 ± 1.4 %ID/g
N=C(N)NCc1ccc(C(=O)NCCCC[C@H](NC(=O)CCCCCCC(=O)NCCCC[C@H](NC(=O)N[C@@H](CCC(=O)O)C(=O)O)C(=O)O)C(=O)O)cc1[131I],"SCID mouse, PC-3 xenografts, spleen",2 h,tissue uptake,3.41 ± 2.01 %ID/g
C[S]1CC[S]2CC[P](CO)(CO)[99Tc+]12.[C-]#[O+].[C-]#[O+].[C-]#[O+],"female CF-1 mouse, carcass","intravenous, 1 h",tissue uptake,4.5 %ID
N=C(N)NCc1ccc(C(=O)NCCCC[C@H](NC(=O)N[C@@H](CCC(=O)O)C(=O)O)C(=O)O)cc1[131I],"SCID mouse, PC-3 xenografts, bone",14 h,tissue uptake,0.03 ± 0.01 %ID/g
Cn1cc(-c2cccc(CN3CCC4(CC3)COc3c4ccc4c3CN([C@H]3CCC(=O)NC3=O)C4=O)c2)cn1,"mouse Crbn I391V, thymus","oral, 30 mg/kg, 6 h",tissue concentration,413 ng/g
O=C(O)CC[C@H](NC(=O)O[C@@H](CCCCNC(=O)c1ccc([18F])cc1)C(=O)O)C(=O)O,"mouse, PC-3 PIP/flu xenografts, muscle",30 min,tissue uptake,0.86 ± 0.81 %ID/g
COC(=O)C[C@](O)(CCCC(C)(C)OC(C)=O)C(=O)O[C@@H]1C(OC)=C[C@]23CCCN2CCc2cc4c(cc2[C@H]13)OCO4,"CD1 mouse, pancreas","subcutaneous, 1 mg/kg, 2 h",tissue concentration,180 ng/mL
N=C(N)NCc1ccc(C(=O)NCCCC[C@H](NC(=O)N[C@@H](CCC(=O)O)C(=O)O)C(=O)O)cc1[211At],"SCID mouse, PC-3 xenografts, thyroid",4 h,tissue uptake,0.75 ± 0.17 %ID/g
COc1cc2ncnc(Oc3cccc(N[11C](=O)Nc4cc(C(C)(C)C(F)(F)F)on4)c3)c2cc1OC,"Balb/c nude mouse, female, A375 melanoma xenograft, pancreas","6.6 MBq, 30 min",tissue uptake,5.24 ± 0.19 %ID/g

# Repeated from above:
Structure (SMILES),test system,setting,quantity,result
C[S]1CC[S]2CC[P](CO)(CO)[99Tc+]12.[C-]#[O+].[C-]#[O+].[C-]#[O+],"female CF-1 mouse, carcass","intravenous, 1 h",tissue uptake,4.5 %ID
N=C(N)NCc1ccc(C(=O)NCCCC[C@H](NC(=O)N[C@@H](CCC(=O)O)C(=O)O)C(=O)O)cc1[131I],"SCID mouse, PC-3 xenografts, bone",14 h,tissue uptake,0.03 ± 0.01 %ID/g
